Experimental data collected from several papers.
Every numbered part comes from another study and shows a few of its results, in no order. Substitutions count along the parent as printed.

Study 1 — target: CCNE2, cyclin fold, Cln2 fusion (human); technique: yeast growth competition, sequencing; medium: yeast; notes: strong parent motif; relative to: not given; direction: higher = stronger binding; endpoint: normalised enrichment score
Starting sequence: E2F1 docking peptide (human); PPVKRRLDLETDH; partner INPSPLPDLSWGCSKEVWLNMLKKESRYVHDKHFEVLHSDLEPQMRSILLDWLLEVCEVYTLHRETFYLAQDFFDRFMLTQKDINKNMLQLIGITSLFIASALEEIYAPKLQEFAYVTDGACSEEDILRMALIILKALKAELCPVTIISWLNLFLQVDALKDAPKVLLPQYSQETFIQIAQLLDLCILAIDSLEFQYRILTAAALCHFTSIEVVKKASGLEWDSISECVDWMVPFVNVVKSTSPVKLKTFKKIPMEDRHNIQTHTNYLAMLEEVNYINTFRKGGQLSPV
E10S: 1.18
R5Y: 0.266
E10T: 2.01
R5L: -0.326
H13D: 1.3
E10G: 1.96

Study 2 — technique: protein-binding microarray; form: double-stranded DNA, one strand shown; medium: in vitro; concentration: 2540 nM top; notes: 60-bp whole probe; with: salmon DNA 0.4 mg/ml; relative to: random background probes; direction: higher = stronger binding; endpoint: fitted relative affinity; constant ends, left off below: GCCTAGCAC … GTCTTGATTCGCTTGACGCTGCTG
Target: Interferon regulatory factor 3, full length, phosphomimetic (IRF3, Homo sapiens, UniProt Q14653, residues 1-427, S386D/S396D/S398D/S402D/T404D/S405D)
Residues (chain): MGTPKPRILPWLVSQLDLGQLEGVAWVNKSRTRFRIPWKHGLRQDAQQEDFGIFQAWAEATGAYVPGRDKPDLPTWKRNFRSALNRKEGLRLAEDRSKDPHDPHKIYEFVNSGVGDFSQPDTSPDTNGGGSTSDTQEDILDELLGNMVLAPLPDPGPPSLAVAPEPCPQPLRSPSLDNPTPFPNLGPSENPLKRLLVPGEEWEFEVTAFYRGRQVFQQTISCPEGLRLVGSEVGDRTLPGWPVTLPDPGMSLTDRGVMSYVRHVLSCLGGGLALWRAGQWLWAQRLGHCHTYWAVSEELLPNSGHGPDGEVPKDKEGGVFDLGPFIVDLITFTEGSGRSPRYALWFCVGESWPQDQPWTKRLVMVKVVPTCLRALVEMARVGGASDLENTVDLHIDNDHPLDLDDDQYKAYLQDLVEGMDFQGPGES
GACGGTTTCCTACTGCTGGCGTGCTAG: 5.72 z-score
TTAGATATAAGTCTCGATTAGTGCTAG: -0.101 z-score
TCACTTTCCACTTTCTTACTGTGCTAG: 5.22 z-score
TCATCATTTTCTCTGTTACTGTGCTAG: 1.37 z-score
TCAGTTTTCGCTTTCTTACTGTGCTAG: 4.74 z-score
GACGGACTGGACACTGTGGACGTGCTA: -0.493 z-score

Study 3 — technique: protein binding microarray; form: double-stranded DNA, one strand shown; medium: in vitro; concentration: not given; relative to: not given; direction: higher = stronger binding; endpoint: E-score
Target: Histone acetyltransferase KAT6A, both winged helices, GST fusion (KAT6A, Homo sapiens, UniProt Q92794, residues 1-181)
Notes: 8-mer, flanks averaged, mean of 2 arrays, mostly near background
Construct (chain): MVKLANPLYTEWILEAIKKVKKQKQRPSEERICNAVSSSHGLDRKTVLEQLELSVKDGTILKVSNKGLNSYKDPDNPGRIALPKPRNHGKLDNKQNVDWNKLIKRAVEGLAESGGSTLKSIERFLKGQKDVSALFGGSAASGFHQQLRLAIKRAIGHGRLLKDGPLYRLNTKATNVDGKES
CCCCAGAG: -0.214
CTCCGTCC: 0.0952
GAGACAAA: -0.187
CGTCCCTA: 0.00183
CAAACAGA: -0.0703
AGGTCACT: -0.178
CTTGCGTC: 0.0501
AGTGGGAT: -0.159
ATTATGTC: 0.0215

Mixed results
PhoQ, residues 284 288 289 292 302 303 NLCILV — fold induction (PhoP, residues 12 14 15 18 19 TQAIL (Escherichia coli, UniProt P23836); Sort-seq, measured: YFP reporter; E. coli; PhoQ-PhoP variant library, with: 10 µM Mg2+; relative to: high Mg2+ state, higher = stronger signaling): 33.2

Some of these lines once more (study 3):
AGGTCACT: -0.178
GAGACAAA: -0.187
CGTCCCTA: 0.00183
CTCCGTCC: 0.0952
